Measurements collected from several papers.
A part holds a random share of what one study measured. Positions count from the first letter of the parent shown.

Block 1
Target: Sal-like protein 4, full length isoform B (SALL4, Homo sapiens, UniProt Q9UJQ4-2, residues 1-616)
Technique: universal PBM
Form: double-stranded DNA, one strand shown
Sample: in vitro
Tested at: not given
Notes: 8-mer, flanks averaged, mean of replicates
Direction: higher = stronger binding
Residues (chain): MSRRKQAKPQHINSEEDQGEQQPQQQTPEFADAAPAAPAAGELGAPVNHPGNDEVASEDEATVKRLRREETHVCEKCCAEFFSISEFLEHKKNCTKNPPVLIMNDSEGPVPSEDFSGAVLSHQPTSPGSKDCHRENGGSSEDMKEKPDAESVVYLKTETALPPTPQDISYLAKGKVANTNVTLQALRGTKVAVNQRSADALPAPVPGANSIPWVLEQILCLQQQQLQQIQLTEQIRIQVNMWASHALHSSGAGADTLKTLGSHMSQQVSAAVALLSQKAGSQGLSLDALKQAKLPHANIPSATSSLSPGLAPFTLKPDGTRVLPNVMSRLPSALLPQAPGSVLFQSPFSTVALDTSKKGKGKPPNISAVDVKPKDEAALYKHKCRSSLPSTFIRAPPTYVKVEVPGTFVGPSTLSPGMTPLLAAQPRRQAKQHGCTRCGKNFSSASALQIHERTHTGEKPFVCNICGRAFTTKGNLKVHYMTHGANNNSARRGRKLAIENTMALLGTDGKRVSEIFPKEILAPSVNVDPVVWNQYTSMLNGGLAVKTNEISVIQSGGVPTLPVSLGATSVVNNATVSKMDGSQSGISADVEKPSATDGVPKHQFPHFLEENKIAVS
| Strand | E-score |
| --- | --- |
| GACAACCA | 0.0354 |
| CGCATCAC | -0.0309 |
| CGTACGTC | -0.034 |
| ACCACACA | 0.117 |
| CTGTCATA | 0.265 |
| CCTCCTCC | -0.266 |
| GGTCGAAA | -0.0292 |
| ACAGAGTC | -0.193 |
| GATGGTAC | -0.0688 |
| GGACTAGA | -0.0851 |
| ACTTACGG | -0.00458 |
| GGGATGAC | -0.214 |
| AGTTCGTC | -0.121 |
| TCGTTGAA | 0.0724 |
| CGCAAATC | -0.0143 |
| CAAGGGAC | -0.261 |
| GTAAACTA | 0.203 |
| GTACTCAC | 0.0102 |
| AGGTCGTA | 0.101 |
| ACCGCGCA | -0.16 |
| TATTGTGA | 0.196 |
| CATGCCAC | -0.131 |
| ATATAGGG | 0.0999 |
| AACCAGCA | -0.0956 |
| CAGTAAGG | -0.0218 |

Block 2
Target: ABI1, truncated, D143A, DHFR fusion (Arabidopsis thaliana)
Technique: DHFR PCA, deep sequencing
Sample: yeast
Notes: methotrexate growth selection, single substitutions
Together with: (+)-ABA 0.0091 µM
Reference: wild-type fitted maximum
Direction: higher = stronger binding
Starting sequence: PYL1, truncated, DHFR fusion (Arabidopsis thaliana); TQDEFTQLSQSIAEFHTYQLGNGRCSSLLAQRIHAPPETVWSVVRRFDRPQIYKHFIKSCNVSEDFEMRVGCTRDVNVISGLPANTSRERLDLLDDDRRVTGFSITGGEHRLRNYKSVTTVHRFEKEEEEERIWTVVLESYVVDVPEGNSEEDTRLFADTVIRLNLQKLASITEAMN; partner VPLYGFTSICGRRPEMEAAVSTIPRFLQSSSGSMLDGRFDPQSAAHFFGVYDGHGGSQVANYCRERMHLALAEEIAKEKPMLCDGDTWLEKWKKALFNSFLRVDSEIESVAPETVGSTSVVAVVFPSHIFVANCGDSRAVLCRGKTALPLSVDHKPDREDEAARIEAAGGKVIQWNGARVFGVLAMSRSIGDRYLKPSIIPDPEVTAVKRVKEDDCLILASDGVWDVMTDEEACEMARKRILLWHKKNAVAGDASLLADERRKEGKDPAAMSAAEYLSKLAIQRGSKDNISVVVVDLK
| Change | relative binding score [%] |
| --- | --- |
| D144N | 6.91 |
| P36K | 8.16 |
| D75C | 6.74 |
| D153Y | 1.75 |
| G23I | -2.25 |
| G71Y | -3.41 |
| E130K | 39.6 |
| Y18V | 1.38 |
| Q51T | 5 |
| D75L | 33.1 |
| F103V | -1.68 |
| L164G | -1.74 |
| G23K | 9.56 |
| E129A | 43.1 |
| E152S | 15.6 |
| N22T | 34.5 |
| L156G | 0.985 |
| I105W | -1.04 |
| I12W | -1.24 |
| S150M | 8.03 |
| E128P | 17.2 |
| D95K | -3.51 |
| E127Y | 19.6 |
| Q31R | 15.1 |

Block 3
Target: Histone acetyltransferase KAT6A, both winged helices, GST fusion (KAT6A, Homo sapiens, UniProt Q92794, residues 1-181)
Technique: protein binding microarray
Form: double-stranded DNA, one strand shown
Sample: in vitro
Tested at: not given
Notes: 8-mer, flanks averaged, mean of 2 arrays, mostly near background
Reference: not given
Direction: higher = stronger binding
Target sequence (chain): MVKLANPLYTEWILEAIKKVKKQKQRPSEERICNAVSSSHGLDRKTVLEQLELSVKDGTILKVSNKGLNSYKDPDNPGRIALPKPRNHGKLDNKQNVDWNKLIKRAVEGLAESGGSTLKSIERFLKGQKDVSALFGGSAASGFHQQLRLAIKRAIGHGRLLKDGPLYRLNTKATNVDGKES
| Strand | E-score |
| --- | --- |
| GAGCCCTC | -0.0244 |
| TAAAGGTA | -0.0803 |
| GGGTTCGA | 0.00044 |
| AATAGGCC | -0.0282 |
| AGAGGCTC | -0.106 |
| ACGATGAC | 0.00246 |
| ATCGCGAG | 0.199 |
| CCCTGTCA | -0.179 |
| ATGACCTG | -0.149 |
| ATGGGGGC | -0.194 |
| CGATAAAG | 0.0434 |
| TAGTTAGA | -0.0293 |
| TATCGACA | 0.0394 |
| CACTCACA | -0.0511 |
| AGCGATCA | 0.102 |
| AATAGGAA | -0.145 |
| ACAATTAG | -0.155 |
| CTTTGCCA | -0.0385 |
| CCACTCCC | -0.179 |
| AGCGTTGA | 0.0244 |
| GCTTGTAA | 0.0312 |
| GCCGCGTA | 0.329 |
| TCACGGCA | 0.301 |
| GATGGATA | -0.0583 |

Block 4
Target: CCNB3, cyclin fold, Cln2 fusion (human)
Technique: yeast growth competition, sequencing
Sample: yeast
Notes: weak parent motif
Reference: not given
Direction: higher = stronger binding
Starting sequence: INSM1 docking peptide (human); PKAIRKLHFEDEV; partner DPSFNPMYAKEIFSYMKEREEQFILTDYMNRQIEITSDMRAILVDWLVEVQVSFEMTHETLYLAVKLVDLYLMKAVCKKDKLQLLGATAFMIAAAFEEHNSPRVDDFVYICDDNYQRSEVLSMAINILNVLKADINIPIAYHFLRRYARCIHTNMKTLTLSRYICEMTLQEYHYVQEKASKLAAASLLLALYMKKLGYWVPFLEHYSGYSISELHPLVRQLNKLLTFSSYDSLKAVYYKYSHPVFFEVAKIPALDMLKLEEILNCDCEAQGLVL
| Change | normalised enrichment score |
| --- | --- |
| R5T | -0.119 |
| D11P | 0.222 |
| E12P | 0.532 |
| K2V | 0.324 |
| K6S | 0.149 |
| H8P | 0.392 |
| R5M | 0.327 |
| I4D | -0.252 |
| R5H | 0.000861 |
| L7T | 0.0292 |
| E12F | 0.79 |
| E12V | 0.509 |
| R5P | -0.166 |
| E10S | 0.449 |
| H8L | 0.857 |
| K2R | 0.308 |
| E10N | 0.385 |
| R5Y | 0.131 |
| R5E | -0.0708 |
| K2W | 0.357 |
| L7S | -0.212 |
| E10Q | 0.26 |
| D11M | 0.206 |
| K6T | 0.273 |
| I4R | 2.31 |

Block 5
Target: Prothrombin, mature alpha-thrombin (F2, Homo sapiens, UniProt P00734)
Technique: aptamer microarray, sandwich
Form: DNA with 2'F-ANA
Sample: in vitro
Tested at: 200 nM
Notes: whole 15-mer aptamer, many near background
Together with: Cy3 exosite-II aptamer, 400 nM
Direction: higher = stronger binding
Strand: GGTTGGTGTGGTTGG
| Modification | mean fluorescence intensity [a.u.] |
| --- | --- |
| 2'F-ANA at 2 4 5 7 8 10 11 12 | 50.8 |
| 2'F-ANA at 2 3 7 8 11 14 | 509 |
| 2'F-ANA at 3 4 5 8 9 10 11 12 14 | 50.6 |
| 2'F-ANA at 4 5 6 7 9 10 11 12 13 | 94.5 |
| 2'F-ANA at 1 4 5 8 9 10 13 15 | 71.8 |
| 2'F-ANA at 1 3 5 8 15 | 63.2 |
| 2'F-ANA at 1 3 4 6 7 8 10 12 13 14 15 | 92.6 |
| 2'F-ANA at 1 3 5 6 9 10 12 14 15 | 46.1 |
| 2'F-ANA at 1 4 5 7 8 9 10 11 14 | 45.1 |
| 2'F-ANA at 1 2 5 6 11 12 13 | 63.9 |
| 2'F-ANA at 6 7 10 11 14 15 | 92.9 |
| 2'F-ANA at 1 2 3 4 5 9 10 11 | 59.5 |
| 2'F-ANA at 2 5 6 9 11 12 13 15 | 75.6 |
| 2'F-ANA at 4 7 8 13 15 | 292 |
| 2'F-ANA at 1 2 3 4 5 7 9 12 13 15 | 70.4 |
| 2'F-ANA at 1 2 7 10 11 | 49.6 |
| 2'F-ANA at 1 2 3 4 5 10 11 12 15 | 49.4 |
| 2'F-ANA at 1 3 4 5 6 8 | 63.4 |

Repeated from above (block 4):
| Change | normalised enrichment score |
| --- | --- |
| E12P | 0.532 |
| K2V | 0.324 |
| K6S | 0.149 |
| H8P | 0.392 |
| R5M | 0.327 |
| I4D | -0.252 |
| R5H | 0.000861 |
| L7T | 0.0292 |
